Measurements pooled from the literature.
A part holds a random share of what one study measured.

Sample 1
Target: Interferon regulatory factor 5, full length, phosphomimetic (IRF5, Homo sapiens, UniProt Q13568-2, residues 1-514, K96S/S451D/S453D/S456D/S462D)
Technique: protein-binding microarray
Molecule type: double-stranded DNA, one strand shown
Matrix: in vitro
Concentration: 250 nM
Notes: 60-bp whole probe
Together with: salmon DNA 0.4 mg/ml
Relative to: random background probes
Reading: higher = stronger binding
Shared flanks, not repeated: GCCTAGCAC … GTCTTGATTCGCTTGACGCTGCTG
Strand | log fluorescence
GACGGATTGGGGTTTCGGGACGTGCTA | 1.61 z-score
TTAGGCTTCCTTTCCCTTTAGTGCTAG | 0.463 z-score
TTAGGTTACCTTCTCCTTTAGTGCTAG | 0.258 z-score
GACGCACTGGGGTTTCGGGACGTGCTA | 1.21 z-score
ATTTTTTTGCATTGCTTCTAGTGCTAG | 1.16 z-score
TCACCTCTAGACTCTAAAACTGTGCTA | 0.456 z-score
GACGGACTGGGGACTGGGCACGTGCTA | -0.475 z-score
TTAGATTTCGGGTATTGATTAGTGCTA | 5.28 z-score
GACGATATCTGGTATCGAGACGTGCTA | 1.97 z-score
GACGATTTCGGGCATCGAGACGTGCTA | 2.33 z-score
GACGGTCTCCGTTTCGGGACGTGCTAG | 1.93 z-score
TCACCTTTATGTCCTGTACTGTGCTAG | 0.445 z-score
ACCACTCTTGCTTTTTAGATGTGCTAG | 0.415 z-score
TCAGGGCTCTCTTCTGCTACTGTGCTA | -0.598 z-score
GACGGTTTCGGTTTCGGGATGTGCTAG | 10.5 z-score
TCATGTTTGGTGTCTTTTACTGTGCTA | 0.506 z-score
TCATGACTCCCTCTCTGACTGTGCTAG | -0.351 z-score
GACGGTCCCGGACTGGGGACGTGCTAG | -0.658 z-score
TTAGATATCGGGTATGGATTAGTGCTA | 2.16 z-score
TCATGTGTATATATAATACTGTGCTAG | 0.404 z-score
TTAGGTATCGACTCTGGGTTAGTGCTA | 2.52 z-score
TTAGGTTTCGGGATCGGTTAGTGCTAG | 7.19 z-score
GACGGACCGCTTTTCCTGACGTGCTAG | -0.274 z-score
TTAGGTTTCGGTTCCGGTTAGTGCTAG | 10.6 z-score
TCATCTTTCGTTACTTCACTGTGCTAG | 6 z-score

Sample 2
Target: Myc proto-oncogene protein, bHLH-zipper, MAX partner unstated (MYC, Homo sapiens, UniProt P01106, residues 368-449)
UniProt P01106, sequence (368-449, looked up): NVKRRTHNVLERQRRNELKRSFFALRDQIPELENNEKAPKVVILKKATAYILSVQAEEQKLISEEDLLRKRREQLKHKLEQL
Technique: protein-binding microarray
Molecule type: double-stranded DNA, one strand shown
Matrix: in vitro
Concentration: not given
Notes: k-mer, scored over probes, only values ≥0.25
Reading: higher = stronger binding
Strand | E-score
CATGCCGA | 0.378
AGGCACGA | 0.268
CACACCCG | 0.282
CGTCACGC | 0.295
CCATGGCA | 0.322
ACCCCGTG | 0.403
GCTCCCCA | 0.259
AATACACG | 0.303
ATGCCATG | 0.36
TCACACGA | 0.254
ACGCGGTC | 0.348
ACGCTAAC | 0.289
ACGAGGTG | 0.356
AATCATGT | 0.303
CCGCACAC | 0.264
CACGTTTC | 0.423
CGTGTGAG | 0.315
CGTGCTCC | 0.39
ACCATGTG | 0.481
CATGCAAG | 0.292
GCATGTCA | 0.367
ACGTGTCC | 0.42
AGTGCACG | 0.314
ATCGCACG | 0.315
AACACGCT | 0.373

Sample 3
Target: RNA binding protein fox-1 homolog 2, RRM domain, GST-SBP tag (RBFOX2, Homo sapiens, UniProt O43251-10, residues 100-194)
Technique: RNA Bind-n-Seq
Molecule type: RNA
Matrix: in vitro
Concentration: 365 nM
Notes: natural RNA segment, single round, ends assumed
Relative to: no-protein control
Reading: higher = stronger binding
Residues (chain): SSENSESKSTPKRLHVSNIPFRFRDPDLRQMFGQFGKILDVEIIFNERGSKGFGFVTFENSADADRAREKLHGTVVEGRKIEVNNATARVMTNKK
Strand | RBNS enrichment (R)
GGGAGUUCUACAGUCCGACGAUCACCAACCUGUUUUCUUCCUCACUUGAAAUUGUACUUUCUGAAAUUUCAAGCAAAUUAAAAACAAUAAGGUAGGAGGUAUUUCCCACGUCACCCCAAGGUGACCAGCCAUGUGGAAUUCUCGGGUGCCAA | 0.301
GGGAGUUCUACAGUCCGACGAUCUGAGCCAAGAUCGUGCCACUGCACUCCAGCCUGAGUGACAGAGCAAGACUCCGUCAAAAAAAAAAAAAAAAAAAAAGAAAUGAUAUCUGGCCCCCCCUUAACACUGGAGCUGGAAUUCUCGGGUGCCAA | 1
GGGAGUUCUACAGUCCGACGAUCAUUGAAUGAGACAAUGCCCACGAAAUGCCCAGUUACAGUACCUGGUUCAAAACUUACUGCAUUUUAAUUUUUCACUUAACUUAUAACAUGUCUUGCUUCUCCAGUGUGUGUGGAAUUCUCGGGUGCCAA | 2.84
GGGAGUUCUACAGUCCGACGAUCCAGUGCUCCCUCACAUGUCAGUACCUUCAAACUAGGGCCAAGCCCAGCACUGCUUGAGGAAAACAAGCAUUCACAACUUGUUUUUGGUUUUUAAAACCCAGUCCACAAAAUGGAAUUCUCGGGUGCCAA | 0.638
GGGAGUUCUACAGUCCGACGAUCAACACUGGCCCGGAAGCCGCCCUCCAUACAGGCCCUCAGGGGGCCUGCCUUCUGCGCCUCAGUCCCCCGUGCAUCCCUGGGCCUGGGUAUCACAUGCUCUCCAGGAAAGGUGGAAUUCUCGGGUGCCAA | 1.55
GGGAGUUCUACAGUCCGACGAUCAAUCAAGCAAAUGGUCCUCUAUUAAGUAAAAAGUAGAAGAGCAAUGUGGUUCUUUUCAGUGUGCCUGCAUAGCGUUCCUGUGUGUACCCCAAGGAUAACUGUAUGCUAUCUGGAAUUCUCGGGUGCCAA | 0.451
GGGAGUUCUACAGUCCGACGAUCUUAUGAGAGCCCGUAGUUACAGUGUCCUCUAAUUUGAAAUCCAUAAGUUAACAAGUCUAUAUCAGGUGCAGCUGGCUUUGAUUAAAGGCCAUUUUUAAAACUUAAAAACUUGGAAUUCUCGGGUGCCAA | 0.568
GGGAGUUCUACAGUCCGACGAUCACCCACUCCCUACAGUCCUCAGACCAAGGAGGGGUUUGGGUAGUAGGCCCGAGCUGCAUUGCCGGCCUUCCUCGGGCCAACUGGCAGCCCAGGAGUGGGGAGGCUUUGGCUGGAAUUCUCGGGUGCCAA | 0.579
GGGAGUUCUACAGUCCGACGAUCCAGGGAUGGCUGGCUGCUCAACACACUCCUCCUCCCCUUUUUUCCUUUCUUUAAGCUGUGUACAGUGAAAAUUGUCUUUACUGUAUUUUUGUUCUCUGGUAAUGUAAUAAUGGAAUUCUCGGGUGCCAA | 0.806
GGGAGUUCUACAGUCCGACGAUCACUAUAUUCUAGUUUGGAGUACUUGCUGUAGGAUACAAGCUGUCUUUGCACUAGCUCUAAAGAAGAAUUUCUUCUGGUUUUAGAGAACUGAUUUUGUUUUAGCAUUAAACUGGAAUUCUCGGGUGCCAA | 0.417
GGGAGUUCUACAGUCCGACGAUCUCGUCCCUGCGCAGUCACCAAAGGGUGCACACUGGGCAACGGCCUUUCAGCUGUGGCAUCUGUGGCAAAAGCUUCUCCCAACGGUCAGCACUUAUCCCCCACGCCCGCAGUGGAAUUCUCGGGUGCCAA | 0.492
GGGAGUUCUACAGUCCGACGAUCAGCGAUGCUCUUUCCUUCUCUGUUUAGGAAGAAGUGGUACUAGUGUGGUGUGUUUGCCUGGAAGUCCCUCGCCCACAGUGUGUGUUCACACCGACUCCACCUCAGAGCAUUGGAAUUCUCGGGUGCCAA | 0.26

Sample 4
Target: Centromere-binding protein 1, full length, N-terminal tag (CBF1, Saccharomyces cerevisiae, UniProt P17106, residues 1-351)
UniProt P17106, sequence (whole entry, looked up): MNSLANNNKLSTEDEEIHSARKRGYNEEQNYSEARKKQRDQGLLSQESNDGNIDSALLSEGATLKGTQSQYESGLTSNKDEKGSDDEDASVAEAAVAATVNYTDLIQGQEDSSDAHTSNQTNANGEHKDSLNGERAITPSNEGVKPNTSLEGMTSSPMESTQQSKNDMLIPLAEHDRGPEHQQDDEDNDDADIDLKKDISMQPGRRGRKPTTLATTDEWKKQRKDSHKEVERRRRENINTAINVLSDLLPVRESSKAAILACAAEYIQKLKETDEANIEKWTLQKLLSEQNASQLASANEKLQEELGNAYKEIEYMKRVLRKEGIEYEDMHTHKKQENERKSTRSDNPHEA
Technique: protein-binding microarray
Molecule type: double-stranded DNA, one strand shown
Matrix: in vitro
Concentration: 0.8 µM
Notes: whole 60-bp probe, no competitor
Reading: higher = stronger binding
Strand | fluorescence intensity
TGTACGAAGCTATATCAGACATGTATAGTAGTTAGGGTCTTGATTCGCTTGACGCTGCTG | 571 a.u.
GAAAGAAAAGGAGATGATGTTACACCCAATCACTAGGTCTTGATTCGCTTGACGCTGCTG | 487 a.u.
GAATTTTGCAATCGTGATTACAGAAAAAAAACATAGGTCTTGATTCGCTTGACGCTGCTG | 755 a.u.
CTATCGACAGCTTCACGTGCCATTTGCCATTTTTTCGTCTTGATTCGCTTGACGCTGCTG | 2960 a.u.
CTAAAAGGAAACAGGCGTGTGATAAGAGGCCAATTCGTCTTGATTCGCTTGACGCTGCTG | 558 a.u.
TGTACGAAGCTATGACGTGTGTGTATAGTAGTTAGGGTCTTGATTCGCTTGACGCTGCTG | 545 a.u.
CTATTCCATGTATGGCTGATGGTGGTGTTCAAATTCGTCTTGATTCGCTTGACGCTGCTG | 533 a.u.
TGTACGAAGCTATGTGACGTTGATATAGTAGTTAGGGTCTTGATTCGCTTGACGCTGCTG | 546 a.u.
TGTACGAAGCTATTGAAGGTGACTATAGTAGTTAGGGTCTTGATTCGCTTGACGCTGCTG | 536 a.u.
CTAGGCATCGTCTCTCACGTGAAATCTGTGGGGTTCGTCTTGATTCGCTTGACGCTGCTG | 2510 a.u.
GAATTTGATAATGTGAACACGTCATCATAGATGTAGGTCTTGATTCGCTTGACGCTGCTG | 615 a.u.
CTAATAATGAATGAAAACGTGTAAAACAGATAATTCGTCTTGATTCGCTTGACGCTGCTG | 581 a.u.
CTATGTAGTAAAAAAATCGTGATGTATACAAACTTCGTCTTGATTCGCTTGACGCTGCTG | 609 a.u.
GAACGGAAAAAAAAGCACGTCACGAAAATAAAATAGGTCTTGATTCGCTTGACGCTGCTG | 727 a.u.
CTAGGTGATACACATCATCACATCCTATATGAATTCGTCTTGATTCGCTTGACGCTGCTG | 505 a.u.
CTAGAAAAAAGAAATAGACACGTGTATGTCAAGTTCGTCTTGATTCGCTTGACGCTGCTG | 4920 a.u.
CTATATTAGATCACTTAGCACGTGAAAAAGAAATTCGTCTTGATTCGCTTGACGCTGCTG | 7860 a.u.
GAACGTTAAAATCTTCACATGGCCCGGCCGCGCTAGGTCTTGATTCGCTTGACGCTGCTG | 543 a.u.
GAAAATGTTTGCGGTCACCCGCGCTGAAAATTTTAGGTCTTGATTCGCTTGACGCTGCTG | 582 a.u.
CTAATTGCACCCGTGCACGTCACACATAAGCTTTTCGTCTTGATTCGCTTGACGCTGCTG | 1050 a.u.

A few entries again (sample 1):
Strand | log fluorescence
TCATGACTCCCTCTCTGACTGTGCTAG | -0.351 z-score
GACGATATCTGGTATCGAGACGTGCTA | 1.97 z-score
GACGGTTTCGGTTTCGGGATGTGCTAG | 10.5 z-score
TTAGGCTTCCTTTCCCTTTAGTGCTAG | 0.463 z-score
TTAGGTTTCGGGATCGGTTAGTGCTAG | 7.19 z-score
GACGGACTGGGGACTGGGCACGTGCTA | -0.475 z-score
